{"data": "Published values pooled from the literature", "note": "Each numbered part is a random draw from the data of one study; scales do not carry over between parts. Changes are numbered by the printed parent chain.", "chain of UniProt Q9XED8 (whole entry, looked up)": "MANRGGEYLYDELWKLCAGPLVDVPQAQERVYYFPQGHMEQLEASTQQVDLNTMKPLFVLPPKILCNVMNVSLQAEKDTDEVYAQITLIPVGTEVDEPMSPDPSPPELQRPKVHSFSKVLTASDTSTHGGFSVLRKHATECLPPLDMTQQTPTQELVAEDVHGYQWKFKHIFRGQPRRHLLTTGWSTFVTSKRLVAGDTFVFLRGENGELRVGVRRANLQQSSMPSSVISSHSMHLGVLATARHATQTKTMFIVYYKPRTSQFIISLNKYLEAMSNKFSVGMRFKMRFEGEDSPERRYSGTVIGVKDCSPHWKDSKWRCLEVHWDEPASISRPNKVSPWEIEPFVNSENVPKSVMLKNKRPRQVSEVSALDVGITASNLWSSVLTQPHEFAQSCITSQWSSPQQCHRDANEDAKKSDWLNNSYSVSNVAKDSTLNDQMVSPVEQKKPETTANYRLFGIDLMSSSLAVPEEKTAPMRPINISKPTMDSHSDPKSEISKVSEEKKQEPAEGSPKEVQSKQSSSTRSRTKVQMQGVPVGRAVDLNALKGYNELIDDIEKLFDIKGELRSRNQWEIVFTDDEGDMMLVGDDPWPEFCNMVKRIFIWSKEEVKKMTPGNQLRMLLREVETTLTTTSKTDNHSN", "chain of UniProt Q9XFM0 (whole entry, looked up)": "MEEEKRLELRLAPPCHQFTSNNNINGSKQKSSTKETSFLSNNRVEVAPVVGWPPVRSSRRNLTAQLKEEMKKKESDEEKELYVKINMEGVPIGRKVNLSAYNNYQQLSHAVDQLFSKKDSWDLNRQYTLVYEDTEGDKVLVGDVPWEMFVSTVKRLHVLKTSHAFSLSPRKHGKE", "chain of UniProt Q9M1R4 (whole entry, looked up)": "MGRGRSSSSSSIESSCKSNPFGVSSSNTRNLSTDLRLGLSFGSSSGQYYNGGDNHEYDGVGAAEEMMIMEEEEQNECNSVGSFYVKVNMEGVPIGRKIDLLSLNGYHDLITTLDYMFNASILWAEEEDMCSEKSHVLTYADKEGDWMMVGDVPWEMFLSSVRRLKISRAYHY", "chain of UniProt Q84WU6 (whole entry, looked up)": "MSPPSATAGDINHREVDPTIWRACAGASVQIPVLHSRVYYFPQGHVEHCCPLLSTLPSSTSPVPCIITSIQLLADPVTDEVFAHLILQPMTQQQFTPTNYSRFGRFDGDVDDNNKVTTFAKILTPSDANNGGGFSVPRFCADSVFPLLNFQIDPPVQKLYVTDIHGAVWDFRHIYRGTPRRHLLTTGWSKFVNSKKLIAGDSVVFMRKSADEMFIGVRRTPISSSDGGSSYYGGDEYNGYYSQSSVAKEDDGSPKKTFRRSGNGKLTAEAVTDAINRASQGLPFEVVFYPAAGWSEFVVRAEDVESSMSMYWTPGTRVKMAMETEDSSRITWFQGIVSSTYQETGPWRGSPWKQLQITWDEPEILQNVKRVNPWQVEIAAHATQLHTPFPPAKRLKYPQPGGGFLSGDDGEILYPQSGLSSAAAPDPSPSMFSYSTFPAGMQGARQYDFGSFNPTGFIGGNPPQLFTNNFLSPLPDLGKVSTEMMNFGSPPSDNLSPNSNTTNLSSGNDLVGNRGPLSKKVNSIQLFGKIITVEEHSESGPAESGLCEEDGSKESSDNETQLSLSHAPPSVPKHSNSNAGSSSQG", "chain of UniProt Q38828 (whole entry, looked up)": "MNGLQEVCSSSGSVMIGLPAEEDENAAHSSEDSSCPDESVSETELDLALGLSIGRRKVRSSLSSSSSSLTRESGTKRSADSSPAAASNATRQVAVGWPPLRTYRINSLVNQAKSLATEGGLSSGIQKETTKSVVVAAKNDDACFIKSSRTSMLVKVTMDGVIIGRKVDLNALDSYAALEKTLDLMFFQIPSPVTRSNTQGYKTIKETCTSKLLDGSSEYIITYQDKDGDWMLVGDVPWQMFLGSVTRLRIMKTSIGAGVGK", "chain of UniProt Q9SKN5 (whole entry, looked up)": "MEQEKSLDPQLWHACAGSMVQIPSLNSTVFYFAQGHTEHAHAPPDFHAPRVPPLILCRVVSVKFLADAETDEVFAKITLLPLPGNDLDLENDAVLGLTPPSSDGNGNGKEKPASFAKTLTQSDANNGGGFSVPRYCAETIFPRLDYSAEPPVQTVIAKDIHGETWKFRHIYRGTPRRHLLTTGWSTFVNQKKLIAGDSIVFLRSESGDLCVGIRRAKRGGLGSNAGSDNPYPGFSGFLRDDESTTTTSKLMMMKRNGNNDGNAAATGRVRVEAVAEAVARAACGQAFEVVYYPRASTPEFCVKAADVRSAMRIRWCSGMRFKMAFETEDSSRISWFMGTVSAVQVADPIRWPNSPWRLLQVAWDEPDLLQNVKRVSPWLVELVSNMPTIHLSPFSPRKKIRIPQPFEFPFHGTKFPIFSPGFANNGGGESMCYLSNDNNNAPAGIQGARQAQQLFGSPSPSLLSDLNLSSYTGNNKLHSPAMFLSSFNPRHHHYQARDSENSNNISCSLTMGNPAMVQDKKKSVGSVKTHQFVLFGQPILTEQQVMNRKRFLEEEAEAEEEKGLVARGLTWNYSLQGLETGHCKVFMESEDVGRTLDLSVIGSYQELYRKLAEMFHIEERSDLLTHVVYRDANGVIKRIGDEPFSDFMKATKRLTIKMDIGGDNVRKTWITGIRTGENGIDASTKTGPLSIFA", "chain of UniProt O23661 (whole entry, looked up)": "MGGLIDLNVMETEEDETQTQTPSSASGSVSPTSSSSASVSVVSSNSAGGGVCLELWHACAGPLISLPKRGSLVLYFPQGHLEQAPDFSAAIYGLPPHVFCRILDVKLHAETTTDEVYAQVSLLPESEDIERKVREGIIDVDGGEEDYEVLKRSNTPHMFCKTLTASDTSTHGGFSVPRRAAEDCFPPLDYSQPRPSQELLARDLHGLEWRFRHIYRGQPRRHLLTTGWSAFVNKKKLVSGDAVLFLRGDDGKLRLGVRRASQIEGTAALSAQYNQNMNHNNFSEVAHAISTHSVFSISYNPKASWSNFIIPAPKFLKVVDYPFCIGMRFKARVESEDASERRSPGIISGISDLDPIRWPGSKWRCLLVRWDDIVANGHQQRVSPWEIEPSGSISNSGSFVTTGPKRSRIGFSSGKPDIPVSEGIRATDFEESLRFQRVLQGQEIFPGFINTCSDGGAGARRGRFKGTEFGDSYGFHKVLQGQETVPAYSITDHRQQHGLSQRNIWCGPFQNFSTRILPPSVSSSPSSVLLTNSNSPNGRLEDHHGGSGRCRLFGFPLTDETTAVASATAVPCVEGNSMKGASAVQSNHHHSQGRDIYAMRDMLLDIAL"}
{"data": "Series 1", "target": "CCND3, cyclin fold, Cln2 fusion (human)", "technique": "yeast growth competition, sequencing", "matrix": "yeast", "setting": "weak parent motif", "relative to": "not given", "reading": "higher = stronger binding", "starting sequence": "MICAL3 docking peptide (human); LQLRRQLSFSEDS"}
{"Variant": "LQLRRQLSFWEDS [S10W]", "normalised enrichment score": -0.422}
{"Variant": "LGLRRQLSFSEDS [Q2G]", "normalised enrichment score": -0.000214}
{"Variant": "LQLRRQLSFKEDS [S10K]", "normalised enrichment score": 0.0717}
{"Variant": "LQLRRQLSFSEVS [D12V]", "normalised enrichment score": 0.0613}
{"Variant": "LWLRRQLSFSEDS [Q2W]", "normalised enrichment score": -0.153}
{"Variant": "LQLRKQLSFSEDS [R5K]", "normalised enrichment score": 0.143}
{"Variant": "LQLRRQLSFSEES [D12E]", "normalised enrichment score": -0.0665}
{"Variant": "LQLRRQLSKSEDS [F9K]", "normalised enrichment score": 0.469}
{"Variant": "LQLRRQLSFSADS [E11A]", "normalised enrichment score": -0.0343}
{"Variant": "LQLRRHLSFSEDS [Q6H]", "normalised enrichment score": -0.226}
{"Variant": "LQLRRQLSHSEDS [F9H]", "normalised enrichment score": -0.153}
{"Variant": "LQLRRQLWFSEDS [S8W]", "normalised enrichment score": -0.0509}
{"Variant": "LQLRRQLSFSEAS [D12A]", "normalised enrichment score": -0.0637}
{"Variant": "LQLRRQLSFSSDS [E11S]", "normalised enrichment score": -0.0824}
{"Variant": "LQLRRQLQFSEDS [S8Q]", "normalised enrichment score": 0.294}
{"Variant": "LQLRRQISFSEDS [L7I]", "normalised enrichment score": 0.192}
{"Variant": "LQLRRQLSFSMDS [E11M]", "normalised enrichment score": -0.307}
{"Variant": "LQLRRQLSFSFDS [E11F]", "normalised enrichment score": -0.0667}
{"Variant": "LQLRRQASFSEDS [L7A]", "normalised enrichment score": 0.0849}
{"Variant": "LQLRRQLSFSESS [D12S]", "normalised enrichment score": -0.0941}
{"Variant": "LQIRRQLSFSEDS [L3I]", "normalised enrichment score": 0.106}
{"Variant": "LFLRRQLSFSEDS [Q2F]", "normalised enrichment score": 0.0411}
{"Variant": "LQLRRGLSFSEDS [Q6G]", "normalised enrichment score": 0.0687}
{"Variant": "LQLRRQLSNSEDS [F9N]", "normalised enrichment score": -0.252}
{"Variant": "LQLRRQLRFSEDS [S8R]", "normalised enrichment score": -0.0607}
{"data": "Series 2", "Sequence": "B1 (IAA4)", "technique": "two-hybrid", "reading": "higher = firmer interaction", "T1": "itself; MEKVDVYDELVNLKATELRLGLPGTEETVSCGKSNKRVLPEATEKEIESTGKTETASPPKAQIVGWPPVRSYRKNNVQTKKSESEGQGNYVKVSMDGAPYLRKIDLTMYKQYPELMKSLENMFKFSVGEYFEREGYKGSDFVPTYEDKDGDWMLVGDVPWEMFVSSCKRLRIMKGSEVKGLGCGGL", "B1": "IAA4 (Arabidopsis thaliana, UniProt P33077); chain MEKVDVYDELVNLKATELRLGLPGTEETVSCGKSNKRVLPEATEKEIESTGKTETASPPKAQIVGWPPVRSYRKNNVQTKKSESEGQGNYVKVSMDGAPYLRKIDLTMYKQYPELMKSLENMFKFSVGEYFEREGYKGSDFVPTYEDKDGDWMLVGDVPWEMFVSSCKRLRIMKGSEVKGLGCGGL"}
{"partner": "IAA30 (Arabidopsis thaliana, UniProt Q9M1R4)", "setting": "weak activation fusion", "relative to": "out of 4 tests", "positive tests": 2}
{"partner": "ARF17 (Arabidopsis thaliana, UniProt Q84WU6)", "setting": "weak activation fusion", "relative to": "out of 4 tests", "positive tests": 0}
{"partner": "ARF10 575-693 (Arabidopsis thaliana, UniProt Q9SKN5)", "relative to": "out of 4 tests", "positive tests": 1}
{"partner": "IAA10 (Arabidopsis thaliana, UniProt Q38828)", "relative to": "out of 4 tests", "positive tests": 2}
{"partner": "IAA28 (Arabidopsis thaliana, UniProt Q9XFM0)", "relative to": "out of 4 tests", "positive tests": 4}
{"partner": "T1, itself", "relative to": "out of 4 tests", "positive tests": 2}
{"partner": "ETT (Arabidopsis thaliana, UniProt O23661)", "relative to": "out of 3 tests", "positive tests": 0}
{"partner": "ARF9 519-638 (Arabidopsis thaliana, UniProt Q9XED8)", "setting": "weak activation fusion", "relative to": "out of 4 tests", "positive tests": 2}
{"data": "Series 3", "target": "Histone acetyltransferase KAT6A, winged helix 2, GST fusion (KAT6A, Homo sapiens, UniProt Q92794, residues 85-181)", "technique": "protein binding microarray", "molecule type": "double-stranded DNA, one strand shown", "matrix": "in vitro", "tested at": "not given", "setting": "8-mer, flanks averaged, mean of 2 arrays, mostly near background", "relative to": "not given", "reading": "higher = stronger binding", "Residues (chain)": "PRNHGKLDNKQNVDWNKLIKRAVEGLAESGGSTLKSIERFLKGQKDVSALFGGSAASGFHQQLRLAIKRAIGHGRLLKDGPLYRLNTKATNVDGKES"}
{"Oligonucleotide": "CAGGGCAG", "E-score": 0.168}
{"Oligonucleotide": "TCCTGGAA", "E-score": 0.00796}
{"Oligonucleotide": "ACGAGGTC", "E-score": 0.215}
{"Oligonucleotide": "CCACTGAA", "E-score": 0.0395}
{"Oligonucleotide": "GTACCTGA", "E-score": 0.102}
{"Oligonucleotide": "AGCCGTAG", "E-score": -0.0153}
{"Oligonucleotide": "GGCTGCGA", "E-score": 0.0823}
{"Oligonucleotide": "ACCTACTC", "E-score": -0.174}
{"Oligonucleotide": "GCAAGGTA", "E-score": -0.0774}
{"Oligonucleotide": "CTCTACTA", "E-score": -0.0417}
{"Oligonucleotide": "GCTACTCA", "E-score": 0.136}
{"Oligonucleotide": "ATCACAAC", "E-score": 0.0503}
{"Oligonucleotide": "GCAGGGCC", "E-score": 0.136}
{"Oligonucleotide": "AGCGACTC", "E-score": -0.0243}
{"Oligonucleotide": "AGAGGACC", "E-score": -0.172}
{"Oligonucleotide": "GGCTTGGA", "E-score": -0.233}
{"Oligonucleotide": "AGCCAGAG", "E-score": 0.0566}
{"Oligonucleotide": "ACCGTACC", "E-score": -0.24}
{"Oligonucleotide": "GTACGCGA", "E-score": -0.181}
{"Oligonucleotide": "AAGATCTG", "E-score": 0.00726}
{"Oligonucleotide": "GAAGGCTC", "E-score": -0.114}
{"Oligonucleotide": "CAAGTCTA", "E-score": -0.0972}
{"Oligonucleotide": "TAGGCCTA", "E-score": 0.00932}
{"Oligonucleotide": "ATTCGCGC", "E-score": 0.115}
{"Oligonucleotide": "GTCCGAGA", "E-score": 0.186}
{"data": "Series 4", "target": "ABI1, truncated, D143A, DHFR fusion (Arabidopsis thaliana)", "technique": "DHFR PCA, deep sequencing", "matrix": "yeast", "setting": "methotrexate growth selection, single substitutions", "together with": "(+)-ABA 0.11 µM", "relative to": "wild-type fitted maximum", "reading": "higher = stronger binding", "starting sequence": "PYL1, truncated, DHFR fusion (Arabidopsis thaliana); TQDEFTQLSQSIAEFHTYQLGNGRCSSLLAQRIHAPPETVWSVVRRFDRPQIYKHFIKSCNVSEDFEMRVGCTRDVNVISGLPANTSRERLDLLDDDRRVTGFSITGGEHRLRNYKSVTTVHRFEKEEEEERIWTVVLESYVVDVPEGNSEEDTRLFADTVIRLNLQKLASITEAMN; partner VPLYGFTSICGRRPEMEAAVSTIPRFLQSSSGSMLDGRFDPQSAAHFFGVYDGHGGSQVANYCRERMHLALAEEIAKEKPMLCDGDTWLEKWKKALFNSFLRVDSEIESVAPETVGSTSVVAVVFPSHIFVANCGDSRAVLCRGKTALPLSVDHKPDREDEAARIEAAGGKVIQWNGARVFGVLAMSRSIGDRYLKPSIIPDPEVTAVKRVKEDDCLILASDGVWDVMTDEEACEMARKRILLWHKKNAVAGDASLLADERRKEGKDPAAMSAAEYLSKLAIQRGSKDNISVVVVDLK"}
{"Variant": "S63N", "relative binding score [%]": 28.8}
{"Variant": "G71E", "relative binding score [%]": -10.9}
{"Variant": "P37Y", "relative binding score [%]": 1.29}
{"Variant": "D96P", "relative binding score [%]": -3.06}
{"Variant": "C25S", "relative binding score [%]": -1.51}
{"Variant": "Y53S", "relative binding score [%]": -1.56}
{"Variant": "D65I", "relative binding score [%]": 0.85}
{"Variant": "A35P", "relative binding score [%]": -2.95}
{"Variant": "G108T", "relative binding score [%]": -2.09}
{"Variant": "Q2M", "relative binding score [%]": 55.8}
{"Variant": "F5I", "relative binding score [%]": 31.5}
{"Variant": "V78F", "relative binding score [%]": 100}
{"Variant": "T6F", "relative binding score [%]": 42.2}
{"Variant": "T119R", "relative binding score [%]": -4.87}
{"Variant": "I133F", "relative binding score [%]": 10.3}
{"Variant": "V40T", "relative binding score [%]": -0.586}
{"Variant": "N85C", "relative binding score [%]": 55.2}
{"Variant": "C25A", "relative binding score [%]": 33.5}
{"Variant": "L8Q", "relative binding score [%]": 10.4}
{"Variant": "G107H", "relative binding score [%]": 13.2}
{"Variant": "N22I", "relative binding score [%]": 29.1}
{"data": "Series 5", "target": "Fragile X messenger ribonucleoprotein 1, C-terminal low-complexity region (Fmr1, Mus musculus, UniProt P35922)", "technique": "RNA Bind-n-Seq", "molecule type": "RNA", "matrix": "in vitro", "tested at": "200 nM", "setting": "whole 134-nt RNA, ends assumed", "together with": "150 mM LiCl", "relative to": "input library", "reading": "higher = stronger binding", "each molecule": "7-deaza-guanosine replaces G", "shared flanks, not repeated": "GGGAGUUCUACAGUCCGACGAUC … UGGAAUUCUCGGGUGUCAAGG"}
{"Oligonucleotide": "UAACUUUAGAGGAGGAUCUGAUGGAUAUGGCAGUGGACGUGGAUUUGGGCAUGGCUAUAAUGGGUAUGGAGGAGGACCUGGAGGUGGCAA", "log2 enrichment": -0.593}
{"Oligonucleotide": "UGGGAGGUGGAUUUUGUUUAUUUUUUUACCUCAUUUCCAGGGGUGGGAAUUUUUUUUUAAUAUGUGUCAUGAAUAAAGUUGUUUUUGAAA", "log2 enrichment": -0.516}
{"Oligonucleotide": "CUGUGCUACACAUCGUAUGUACCGAAUCGGGGAAAAAAAGGGAAAAAAAGGGGAAAAAAAGGAAAGUAUUAUGUUACGCCGUUCGGAUCU", "log2 enrichment": 0.304}
{"Oligonucleotide": "AAGUCCUGUGCUACACAUCGUAUGUACCGAAUCGGCCCGGGGCCCGGGGCCCGGGGAAAGUAUUAUGUUACGCCGUUCGGAUCUGCACUU", "log2 enrichment": -1.86}
{"Oligonucleotide": "UGGCCCUGGUGGCAUGCGGGGAGGAAGAGGUGGCCUCAUGGAUCGUGGUGGUCCCGGUGGAAUGUUCAGAGGUGGCCGAGGUGGAGACAG", "log2 enrichment": -0.793}
{"Oligonucleotide": "CCUGUGCUACACAUCGUAUGUACCGAAUCGGGAAAAAAGGGGAAAAAAGGGGAAAAAAGGAAAGUAUUAUGUUACGCCGUUCGGAUCUGC", "log2 enrichment": 0.355}
{"Oligonucleotide": "UGGCCCUGGUGGCAUGCGGGGAGGAAGAGGUGGCCUCAUGGAUCGUGGUGGUCCCGGUGGAAUGUUCAGAGGUGGCCGUGGUGGAGAGAG", "log2 enrichment": 0.0255}
{"Oligonucleotide": "UGGCCCUGGUGGCAUGCGUGGAGGAAGAGGUGGCCUCAUGGAUCGUGGUGGUCCCGGUGGAAUGUUCAGAGGUGGCCGUGGUGGAGACAG", "log2 enrichment": -0.0591}
{"Oligonucleotide": "UAACUUUAGAGGAGGAUCUGAUGGAUAUGGCAGUGGACGUGGAUUUGGGGACGGCUAUAAUGGGUAUGGAGGAGGACCUGGAGGUGGCAA", "log2 enrichment": 0.361}
{"Oligonucleotide": "AGUUACUCAGUUCAUUUUGGAUAACUACAUUGAAAGAGGAAAAGGAUCUGCUUGCAGAAUAGUUUGUACUCAGCCAAGAAGAAUUAGUGC", "log2 enrichment": -3.82}
{"Oligonucleotide": "CAAGUCCUGUGCUACACAUCGUAUGUACCGAAUCGGGGAGGGGUUUGGGGAGGGGAAAGUAUUAUGUUACGCCGUUCGGAUCUGCACUUC", "log2 enrichment": 0.317}
{"note": "Repeated from above (series 3):"}
{"Oligonucleotide": "GGCTTGGA", "E-score": -0.233}
{"Oligonucleotide": "GCAAGGTA", "E-score": -0.0774}
{"Oligonucleotide": "CAGGGCAG", "E-score": 0.168}
{"Oligonucleotide": "ATTCGCGC", "E-score": 0.115}
{"Oligonucleotide": "CTCTACTA", "E-score": -0.0417}
{"Oligonucleotide": "ACGAGGTC", "E-score": 0.215}
{"Oligonucleotide": "GTACGCGA", "E-score": -0.181}
{"Oligonucleotide": "AGAGGACC", "E-score": -0.172}
{"Oligonucleotide": "ATCACAAC", "E-score": 0.0503}
{"Oligonucleotide": "GCAGGGCC", "E-score": 0.136}
{"Oligonucleotide": "TAGGCCTA", "E-score": 0.00932}
